Experimental data pooled from the literature.
Protocols differ between the studies behind these lines. ± marks the error that the study gave.

SMILES | test | system | conditions | how to read | measurement | result
CN[C@@H]1COc2c(S(=O)(=O)NC(=O)Nc3c4c(cc5c3CCC5)CCC4)cnn2C1 | refers to: IL-18 | human participants, whole blood ex vivo | 300 mg twice daily, multiple doses, 148 h, IL-18, circulating, adjusted for, added: LPS/ATP | baseline: baseline | inhibition | 99.6%
C[C@H]1C[C@H]2CSC(N)=N[C@@]2(c2nc(NC(=O)c3ccc(OC(F)F)cn3)cs2)CO1 | refers to: Aβ1-40 | healthy adults, plasma | 3 mg single dose, 8 h post-dose | baseline: placebo | percent change from baseline | -50.5%
C[C@H](Oc1ccc(Br)cc1-c1ccon1)C(=O)O | response peak | human, tibialis anterior muscle | 50 mg, 30 Hz+30 s |  | difference from placebo | 13.1%
OC(CCN1CCCCC1)(c1ccccc1)C1CC2C=CC1C2 (stereo not shown) | resting-state EEG | healthy elderly humans | oral, 4 mg, eyes open, LS mean | baseline: baseline | change, Theta power, EEG Pz-O2 | 0.9%
N#Cc1ccc2c(c1)[C@H]1CCCN(C(=O)c3ccc4[nH]cnc4c3)[C@H]1C2 |  | human, Phase II trial | oral, 20 mg once daily, day 28, adjusted mean, SE |  | systolic blood pressure change | 1.4 mmHg
CN(C(=O)n1cnc(-c2ccc[n+]([O-])c2)c1)C1CCCCC1 | refers to: PEA | human, plasma | 5 mg once daily, day 10 |  | AUC(0-tau) | 134 ng·h/mL
CC(C)C[C@@H](NC(=O)[C@H](C)NC(=O)CNC(=O)[C@@H](NC=O)C(C)C)C(=O)N[C@@H](C)C(=O)N[C@@H](C(=O)N[C@H](C(=O)N[C@@H](C(=O)N[C@@H](Cc1c[nH]c2ccccc12)C(=O)N[C@H](CC(C)C)C(=O)N[C@@H](Cc1cccc2[nH]ccc12)C(=O)N[C@H](CC(C)C)C(=O)N[C@@H](Cc1c[nH]c2ccccc12)C(=O)N[C@H](CC(C)C)C(=O)N[C@@H](Cc1c[nH]c2ccccc12)C(=O)NCCO)C(C)C)C(C)C)C(C)C | H+/Na+ transport, pyranine pH-gradient | EYPC/cholesterol LUVs 2:1 |  |  | EC50 | 38.8 ± 11.3 nM
O[C@H]1CCCN[C@@H]1CCCn1cnc2c(Cl)c(Cl)ccc21 | ELISA, refers to: Pro-C3 | healthy human volunteers, serum | intraduodenal, 50 mg twice daily, day 14, multiple ascending dose |  | AUC(0-tau) | 158 ng·h/mL
CS(=O)(=O)CCNCc1ccc(-c2ccc3ncnc(Nc4ccc(OCc5cccc(F)c5)c(Cl)c4)c3c2)o1 | tumour growth | NCI-H292, mouse, subcutaneous NCI-H292 xenograft | oral, 21 days daily, lung cancer |  | ED50 | < 100 mg/kg
[Cl-].[Cl-].[Pt+2].[Ru+2].c1ccc(-c2nccnc2-c2ccccn2)nc1.c1cnc2c(c1)ccc1cccnc12.c1cnc2c(c1)ccc1cccnc12 | chloride substitution, UV-vis kinetics | aqueous buffer | concentration not given, pH 7.2, second substitution step, added: L-methionine |  | negative activation entropy | 194 ± 16 J/(mol·K)
O=C(O)c1ccc(-n2cc(CNc3cc(Br)cc(C(F)(F)F)c3)c(-c3ccc(F)c(F)c3)n2)cc1 |  | Caenorhabditis elegans, S. aureus infected | 4 µg/mL, 5 days |  | survival | ~85%
CN(C)C(=O)Oc1cccc([N+](C)(C)C)c1 | neuromuscular block reversal | rat | dose not given, 5.5 (unit not given), added: cisatracurium | baseline: T1 twitch | train-of-four ratio | 32
C[C@@H](O)CCOC(=O)C[C@@H](C)O | refers to: C16-OH/C14-DC acylcarnitine | human, plasma | 60 min, log2-transformed values |  | metabolite level | -6.91 ± 0.41 µmol/L
COc1ccc(-c2cncc(N[C@@H](C)c3cccc(NC(=O)c4cncc(C)c4)c3)n2)cc1OC | refers to: rno-miR-151-3p | rat SU5416/hypoxia model, lung | dose not given | baseline: SU5416/hypoxia vehicle | fold change | 0.998
O=C(O)CNC(=O)Cc1ccccc1 |  | ventricular cardiomyocytes, C57BL/6 mouse | dose not given, 0.72 s |  | sarcomere length | 1.72 µm
COc1cc2cc(-c3ccc(CC(=O)Nc4cc(C(C)(C)C(F)(F)F)no4)cn3)cnc2cc1OC | RECIST v1.1 | RET-altered advanced solid tumour patients | oral, 40 mg once daily, phase I |  | progressive disease as best response | 0%
CSCCNc1nc(SCCC(F)(F)F)nc2c1ncn2[C@@H]1O[C@H](COP(=O)(O)OP(=O)(O)C(Cl)(Cl)P(=O)(O)O)[C@@H](O)[C@H]1O | light transmittance aggregometry | human patients, platelet-rich plasma | dose not given, 1 h, added: ADP 20 µM | baseline: patients | patients with IPA above 90% | 0%
CCCCCCCCCCCCCCCC(=O)NCCOC(=O)C[C@@H](CN)CC(C)C | mechanical withdrawal threshold | mouse, carrageenan inflammatory pain | oral |  | ED50 | 4.43 mg/kg
c1ccc(-c2n[nH]cc2-c2ccnc3ccccc23)nc1 | kinase binding, competitor, MIB/MS competition, refers to: CMK1 | Candida albicans cell lysate | 10 µM | baseline: DMSO | log2 fold change | 1.6

For quick reference, copied from above:
SMILES | test | system | conditions | how to read | measurement | result
CN(C(=O)n1cnc(-c2ccc[n+]([O-])c2)c1)C1CCCCC1 | refers to: PEA | human, plasma | 5 mg once daily, day 10 |  | AUC(0-tau) | 134 ng·h/mL
CN(C)C(=O)Oc1cccc([N+](C)(C)C)c1 | neuromuscular block reversal | rat | dose not given, 5.5 (unit not given), added: cisatracurium | baseline: T1 twitch | train-of-four ratio | 32
C[C@H](Oc1ccc(Br)cc1-c1ccon1)C(=O)O | response peak | human, tibialis anterior muscle | 50 mg, 30 Hz+30 s |  | difference from placebo | 13.1%
